Results gathered from unrelated publications.
Numbered parts are unrelated; each lists some results of a single study. Substitutions count along the parent as printed.

Study 1 — technique: DHFR PCA, deep sequencing; medium: yeast; with: (+)-ABA 0.032 µM; relative to: wild-type fitted maximum; direction: higher = stronger binding
Target: ABI1, truncated, D143A, DHFR fusion (Arabidopsis thaliana)
Setting: methotrexate growth selection, single substitutions
Starting sequence: PYL1, truncated, DHFR fusion (Arabidopsis thaliana); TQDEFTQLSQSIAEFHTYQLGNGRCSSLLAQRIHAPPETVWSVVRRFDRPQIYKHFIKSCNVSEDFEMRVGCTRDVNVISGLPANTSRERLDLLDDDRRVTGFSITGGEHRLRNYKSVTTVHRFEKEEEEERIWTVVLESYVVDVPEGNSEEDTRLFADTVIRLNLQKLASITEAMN; partner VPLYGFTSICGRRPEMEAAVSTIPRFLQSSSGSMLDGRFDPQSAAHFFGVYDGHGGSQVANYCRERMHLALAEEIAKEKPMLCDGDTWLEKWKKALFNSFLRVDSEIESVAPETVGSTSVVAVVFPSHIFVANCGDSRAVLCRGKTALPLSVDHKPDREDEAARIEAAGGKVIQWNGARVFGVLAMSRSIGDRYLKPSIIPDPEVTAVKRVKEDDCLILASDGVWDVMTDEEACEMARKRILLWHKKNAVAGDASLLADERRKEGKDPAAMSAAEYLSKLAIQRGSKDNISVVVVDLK
| Substitution | relative binding score |
| --- | --- |
| N22T | 35.6% |
| T17L | -2.49% |
| E147W | -6.79% |
| D144N | -0.915% |
| L93A | 5.07% |
| I12P | 2.33% |
| C60M | -7.71% |
| R69L | 1.27% |
| D75C | 9.25% |
| S150W | -4.2% |
| Q31R | 5.97% |
| N177T | 36% |
| I162Q | 5.03% |
| D75L | 33.2% |
| D153Y | 0.0802% |
| E38C | 5.9% |

Study 2 — target: UBE2V1 UBC core domain (UniProt Q13404); technique: yeast two-hybrid; medium: yeast; setting: mostly zero background; relative to: not given; direction: higher = stronger interaction
B1: Ltn1 RING domain (UniProt Q6A009); chain VDKRFEGVEDCMICFSVIHGFNYSLPKKACRTCKKKFHSACLYKWFTSSNKSTCPLCRETFF
B2: RNF135 RING domain (UniProt Q8IUD6); chain PVWLAEDDLGCIICQGLLDWPATLPCGHSFCRHCLEALWGARDARRWACPTCRQGAAQQPHLR
B3: RNF181 RING domain (UniProt Q9P0P0); chain VIRGSQAELKCPVCLLEFEEEETAIEMPCHHLFHSSCILPWLSKTNSCPLCRYELPTDDDTY
B4: PRKN RING domain (UniProt O60260); chain LIATNSRNITCITCTDVRSPVLVFQCNSRHVICLDCFHLYCVTRLNDRQFVHDPQLGYSLPCVAGCPNSLIKELHH
B5: TRIM48 RING domain (UniProt Q8IWZ4); chain ISQVFQRELTCPICMNYFIDPVTIDCGHSFCRPCFYLNWQDIPILTQCFECIKTIQQRNLKT
B6: TRIM22 RING domain (UniProt Q8IYM9); chain KEVKMSPQEGQKRDVCEHHGKKLQIFCKEDGKVICWVCELSQEHQGHQTFRINEVVKECQEK
B7: RNF24 RING domain (UniProt Q9Y225); chain KVKELNLHELCAVCLEDFKPRDELGICPCKHAFHRKCLIKWLEVRKVCPLCNMPVLQLAQLH
B8: DTX1 RING domain (UniProt Q86Y01); chain QKVKNPPDEDCTICMERLVTASGYEGVLRHKGVRPELVGRLGRCGHMYHLLCLVAMYSNGNKDGSLQCPTCKAIYGEKTGTQ
B9: ZNRF3 RING domain (UniProt Q9ULT6); chain DTLSSSSTSDCAICLEKYIDGEELRVIPCTHRFHRKCVDPWLLQHHTCPHCRHNIIEQKGNP
Construct (chain): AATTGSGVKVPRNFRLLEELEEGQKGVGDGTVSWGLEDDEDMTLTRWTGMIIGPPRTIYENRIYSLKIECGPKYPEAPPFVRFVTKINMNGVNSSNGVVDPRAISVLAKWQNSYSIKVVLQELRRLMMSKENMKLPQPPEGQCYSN
| Molecule | lacZ reporter activity |
| --- | --- |
| B1 (Ltn1 RING domain) | 0 |
| QLRRLQEERTCKVCLDRAVSIVFVPCGHLVCAECAPGLQLCPICRAPVRSRVRTF (BIRC7 RING domain (UniProt Q96CA5)) | 0 |
| ALDRLEKLLRCSRCTNILREPVCLGGCEHIFCSNCVSDCIGTGCPVCYTPAWIQDLKI (BARD1 RING domain (UniProt Q99728)) | 0 |
| B2 (RNF135 RING domain) | 0 |
| NTAPSLTVPECAICLQTCVHPVSLPCKHVFCYLCVKGASWLGKRCALCRQEIPEDFLDK (RNF146 RING domain (UniProt Q9NTX7)) | 0 |
| B3 (RNF181 RING domain) | 0 |
| B4 (PRKN RING domain) | 0 |
| MDDQGCPRCKTTKYRNPSLKLMVNVCGHTLCESCVDLLFVRGAGNCPECGTPLRKSNFRV (MNAT1 RING domain (UniProt P51948)) | 0 |
| B5 (TRIM48 RING domain) | 0 |
| KEQLEKHNDICAICYQDMKSAVITPCSHFFHAGCLKKWLYVQETCPLCHCHLKNSSQLP (RNF145 RING domain (UniProt Q96MT1)) | 0 |
| KITELNPHLMCVLCGGYFIDATTIIECLHSFCKTCIVRYLETSKYCPICDVQVHKTRPLL (BMI1 RING domain (UniProt P35226)) | 0 |
| B6 (TRIM22 RING domain) | 0 |
| B7 (RNF24 RING domain) | 0 |
| B8 (DTX1 RING domain) | 0 |
| B9 (ZNRF3 RING domain) | 0 |

Study 3 — technique: universal PBM; form: double-stranded DNA, one strand shown; medium: in vitro; tested at: 600 nM; direction: higher = stronger binding
Target: Sal-like protein 4, full length isoform A (SALL4, Homo sapiens, UniProt Q9UJQ4, residues 1-1053)
UniProt Q9UJQ4, sequence (whole entry, looked up): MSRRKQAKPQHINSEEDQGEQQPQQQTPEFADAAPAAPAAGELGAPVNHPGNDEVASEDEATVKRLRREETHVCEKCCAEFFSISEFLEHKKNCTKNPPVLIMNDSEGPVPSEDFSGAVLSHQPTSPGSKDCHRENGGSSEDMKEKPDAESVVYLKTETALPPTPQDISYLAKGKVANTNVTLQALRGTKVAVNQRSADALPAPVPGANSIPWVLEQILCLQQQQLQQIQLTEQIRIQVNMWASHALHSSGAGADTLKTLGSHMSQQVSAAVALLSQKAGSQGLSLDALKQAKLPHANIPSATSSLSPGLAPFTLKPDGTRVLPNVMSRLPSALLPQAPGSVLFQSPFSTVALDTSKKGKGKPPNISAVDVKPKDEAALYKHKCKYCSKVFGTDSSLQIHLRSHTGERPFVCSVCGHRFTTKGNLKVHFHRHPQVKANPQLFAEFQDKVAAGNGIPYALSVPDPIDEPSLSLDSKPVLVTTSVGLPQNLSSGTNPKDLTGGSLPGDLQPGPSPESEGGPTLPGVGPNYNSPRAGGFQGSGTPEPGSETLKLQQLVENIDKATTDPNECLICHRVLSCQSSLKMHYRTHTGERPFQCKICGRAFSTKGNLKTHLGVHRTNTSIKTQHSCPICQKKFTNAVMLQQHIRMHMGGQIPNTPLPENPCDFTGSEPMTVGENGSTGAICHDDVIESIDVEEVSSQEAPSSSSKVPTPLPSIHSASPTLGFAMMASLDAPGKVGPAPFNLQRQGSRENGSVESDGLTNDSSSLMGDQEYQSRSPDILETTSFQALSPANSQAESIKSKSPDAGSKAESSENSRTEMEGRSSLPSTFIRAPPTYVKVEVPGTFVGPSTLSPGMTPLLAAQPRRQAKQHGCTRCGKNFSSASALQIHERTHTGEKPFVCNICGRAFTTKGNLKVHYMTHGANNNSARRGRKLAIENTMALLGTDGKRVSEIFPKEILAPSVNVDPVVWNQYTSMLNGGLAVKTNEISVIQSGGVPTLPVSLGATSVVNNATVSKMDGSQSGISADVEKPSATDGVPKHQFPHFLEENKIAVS
Setting: 8-mer, flanks averaged, mean of replicates
| Strand | E-score |
| --- | --- |
| ATACCCCA | -0.0134 |
| GAAACACC | -0.0953 |
| CGCTCTAC | -0.0533 |
| GTTGTGAA | 0.179 |
| ACGATTCG | -0.109 |
| AGCCGATA | -0.0748 |
| CGTACGAA | 0.131 |
| GATCCTGA | -0.0637 |
| CAAATGGG | -0.00322 |
| GAGGATGC | -0.219 |
| GGTAGACA | -0.0117 |
| AATATGGG | 0.262 |
| AGCCTTAA | 0.00455 |
| ACCAGGAA | -0.118 |
| CCGAGCTC | -0.243 |
| CCGACGTA | -0.124 |
| CATGCAGA | -0.0492 |
| CCTCAGCC | -0.301 |
| GACCTTAC | -0.0346 |
| AGTCGCCC | -0.24 |
| GTTTAATA | 0.37 |
| GTTTCAAA | 0.176 |
| CCTCCAAC | -0.122 |
| TTAGACAA | 0.21 |

Study 4 — target: CCND3, cyclin fold, Cln2 fusion (human); technique: yeast growth competition, sequencing; medium: yeast; setting: weak parent motif; relative to: not given; direction: higher = stronger binding
Starting sequence: HASPIN docking peptide (human); ASLRSVLFGLMNS; partner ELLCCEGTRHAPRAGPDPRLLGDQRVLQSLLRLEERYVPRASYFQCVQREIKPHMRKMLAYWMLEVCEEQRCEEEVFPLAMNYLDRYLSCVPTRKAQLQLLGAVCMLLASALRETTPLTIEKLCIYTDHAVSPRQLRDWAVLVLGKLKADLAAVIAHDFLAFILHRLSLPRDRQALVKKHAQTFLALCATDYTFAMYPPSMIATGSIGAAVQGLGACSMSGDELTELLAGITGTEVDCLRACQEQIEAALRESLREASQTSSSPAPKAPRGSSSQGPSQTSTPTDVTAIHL
| Substitution | normalised enrichment score |
| --- | --- |
| V6A | -0.5 |
| R4A | -1.07 |
| N12A | 0.412 |
| L10A | 0.469 |
| S5A | -0.267 |
| M11A | 0.713 |

Study 5 — technique: protein-binding microarray; form: double-stranded DNA, one strand shown; medium: in vitro; tested at: 250 nM; setting: 60-bp whole probe; with: salmon DNA 0.4 mg/ml; relative to: random background probes; direction: higher = stronger binding; constant ends, left off below: GCCTAGCAC … GTCTTGATTCGCTTGACGCTGCTG
Target: Interferon regulatory factor 5, full length, phosphomimetic (IRF5, Homo sapiens, UniProt Q13568-2, residues 1-514, K96S/S451D/S453D/S456D/S462D)
| Strand | log fluorescence [z-score] |
| --- | --- |
| TTAGAGATCGGGACTGGATTAGTGCTA | -0.335 |
| TTAGATATCGGACTGGATTAGTGCTAG | 0.981 |
| TTGTTTTACAATTTGCTTTAGTGCTAG | 1.09 |
| TCATGACACCGATTTCATACTGTGCTA | 0.401 |
| GACGATTTCGGTCTCGGGACGTGCTAG | 6.48 |
| TCAGGTCTCGGTATCGGTTAGTGCTAG | 5.11 |
| TTAGGTTTGGGGACTGGGTTAGTGCTA | -0.193 |
| TTAGGTGTCCTACTGCTTTAGTGCTAG | -0.207 |
| TCATGTCTGGGTATTTTACTGTGCTAG | 0.0525 |
| GACGATTTCGGGACTGGGGACGTGCTA | 1.87 |
| TTCTGGTTCCCATTCCAGGGGTGCTAG | 0.832 |
| GACGAATTGGGGTTTCGAGACGTGCTA | 1.27 |
| GACCATATCGGGTTTCGAGACGTGCTA | 2.86 |
| TTAGAACTGGGGAATGGATTAGTGCTA | -0.22 |
| TCAAATTTCCACTTTGAACTGTGCTAG | 0.809 |
| TTAGGTTTCCTACTGCGTTAGTGCTAG | 0.413 |
| TCACTTCTAGACTTCTCACTGTGCTAG | 0.375 |
| TTAGGTATCGGGACTGGGTTCGTGCTA | 1.63 |
| AATACCTTCGAGTCTGCAACAGTGCTA | 1.21 |

Single results of other studies — technique: two-hybrid; relative to: out of 4 tests; direction: higher = firmer interaction
T1: itself; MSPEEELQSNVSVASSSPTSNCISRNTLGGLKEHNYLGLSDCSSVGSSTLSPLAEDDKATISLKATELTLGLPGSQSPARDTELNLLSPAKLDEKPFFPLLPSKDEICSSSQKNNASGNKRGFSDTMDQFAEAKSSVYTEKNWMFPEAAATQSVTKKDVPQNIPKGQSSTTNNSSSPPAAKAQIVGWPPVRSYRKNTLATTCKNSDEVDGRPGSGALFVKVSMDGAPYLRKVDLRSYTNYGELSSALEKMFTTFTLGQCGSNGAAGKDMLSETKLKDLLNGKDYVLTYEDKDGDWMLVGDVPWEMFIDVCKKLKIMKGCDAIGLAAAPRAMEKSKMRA
T2: itself; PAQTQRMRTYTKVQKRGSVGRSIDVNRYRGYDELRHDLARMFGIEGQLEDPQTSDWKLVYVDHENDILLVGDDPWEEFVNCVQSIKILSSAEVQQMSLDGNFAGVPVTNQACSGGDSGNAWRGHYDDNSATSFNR
T3: itself; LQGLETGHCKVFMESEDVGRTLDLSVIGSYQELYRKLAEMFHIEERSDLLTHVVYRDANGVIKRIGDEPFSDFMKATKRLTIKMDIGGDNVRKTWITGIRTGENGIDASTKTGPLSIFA
T4: itself; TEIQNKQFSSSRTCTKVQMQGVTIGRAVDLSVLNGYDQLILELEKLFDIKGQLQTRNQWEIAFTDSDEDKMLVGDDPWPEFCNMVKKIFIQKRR
B10: IAA9 (Arabidopsis thaliana, UniProt Q38827); chain MSPEEELQSNVSVASSSPTSNCISRNTLGGLKEHNYLGLSDCSSVGSSTLSPLAEDDKATISLKATELTLGLPGSQSPARDTELNLLSPAKLDEKPFFPLLPSKDEICSSSQKNNASGNKRGFSDTMDQFAEAKSSVYTEKNWMFPEAAATQSVTKKDVPQNIPKGQSSTTNNSSSPPAAKAQIVGWPPVRSYRKNTLATTCKNSDEVDGRPGSGALFVKVSMDGAPYLRKVDLRSYTNYGELSSALEKMFTTFTLGQCGSNGAAGKDMLSETKLKDLLNGKDYVLTYEDKDGDWMLVGDVPWEMFIDVCKKLKIMKGCDAIGLAAAPRAMEKSKMRA
B11: ARF7 1030-1164 (Arabidopsis thaliana, UniProt P93022); chain PAQTQRMRTYTKVQKRGSVGRSIDVNRYRGYDELRHDLARMFGIEGQLEDPQTSDWKLVYVDHENDILLVGDDPWEEFVNCVQSIKILSSAEVQQMSLDGNFAGVPVTNQACSGGDSGNAWRGHYDDNSATSFNR
B12: ARF10 575-693 (Arabidopsis thaliana, UniProt Q9SKN5); chain LQGLETGHCKVFMESEDVGRTLDLSVIGSYQELYRKLAEMFHIEERSDLLTHVVYRDANGVIKRIGDEPFSDFMKATKRLTIKMDIGGDNVRKTWITGIRTGENGIDASTKTGPLSIFA
B13: ARF12 500-593 (Arabidopsis thaliana, UniProt Q9XID4); chain TEIQNKQFSSSRTCTKVQMQGVTIGRAVDLSVLNGYDQLILELEKLFDIKGQLQTRNQWEIAFTDSDEDKMLVGDDPWPEFCNMVKKIFIQKRR
| Molecule | partner | positive tests |
| --- | --- | --- |
| B10 (IAA9) | T1, itself | 2 |
| B11 (ARF7 1030-1164) | T2, itself | 0 |
| B12 (ARF10 575-693) | T3, itself | 0 |
| B13 (ARF12 500-593) | T4, itself | 0 |

For quick reference, copied from above (study 5):
| Strand | log fluorescence [z-score] |
| --- | --- |
| TTAGAGATCGGGACTGGATTAGTGCTA | -0.335 |
| GACGATTTCGGGACTGGGGACGTGCTA | 1.87 |
| TCATGACACCGATTTCATACTGTGCTA | 0.401 |
| TCATGTCTGGGTATTTTACTGTGCTAG | 0.0525 |
| TTCTGGTTCCCATTCCAGGGGTGCTAG | 0.832 |
| TCACTTCTAGACTTCTCACTGTGCTAG | 0.375 |
| TTAGGTATCGGGACTGGGTTCGTGCTA | 1.63 |
